Measured values from different studies.
Each line is one published result; not all experiments were run side by side. ± gives the spread as reported.
Chain of UniProt P52564 (whole entry, looked up): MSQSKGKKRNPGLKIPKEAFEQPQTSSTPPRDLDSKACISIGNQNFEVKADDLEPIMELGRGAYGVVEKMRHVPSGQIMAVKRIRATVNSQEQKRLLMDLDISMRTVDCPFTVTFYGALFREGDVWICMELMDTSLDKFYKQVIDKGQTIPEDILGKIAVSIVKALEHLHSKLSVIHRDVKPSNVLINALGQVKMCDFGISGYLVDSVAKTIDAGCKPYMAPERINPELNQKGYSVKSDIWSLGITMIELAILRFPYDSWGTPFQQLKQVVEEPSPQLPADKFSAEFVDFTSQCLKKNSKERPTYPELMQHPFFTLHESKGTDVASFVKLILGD

Structure (SMILES) | tested on | assay | test system | setting | scale | measurement | value
Cc1nn(-c2cccc(N)c2)c(=O)c2cnc(Nc3ccc(N4CCNCC4)cc3)nc12 | Dual specificity mitogen-activated protein kinase kinase 6 (MAP2K6, Homo sapiens, UniProt P52564) | enzyme activity, inhibitor |  |  |  | IC50 | > 10000 nM
C=CS(=O)(=O)NCCCCOCc1cn(CCCCNS(=O)(=O)C=C)n[n+]1C | L929 | viability, alamarBlue |  | 3 days |  | IC50 | > 50000 nM
COc1ccc2c(c1)CN1C(=S)N([C@H](C)c3ccccc3)C(=O)C1=N2 | CEM/ADR5000 (P-gp overexpressing, multidrug resistant) | cell viability, resazurin |  | 72 h |  | IC50 | 1330 ± 247 nM
CN(Cc1ccccc1)C(=O)CN1CCN(CC(=O)[O-])CCN(Cc2cccc(C(=O)[O-])n2)CC1.[44Sc+3] |  |  | mouse, muscle | intravenous, 1 h |  | tracer uptake | 0.2 %ID/g
O=C1C(Cl)=C(Cl)C(=O)c2c(O)ccc(O)c21 | HuCC-A1 | cell growth or viability, MTT |  |  |  | IC50 | 9460 nM
C=CC(=O)Nc1cccc(Cn2ncc3cnc(Nc4cnn(CCOC)c4)nc32)c1 | GRK2 human | binding, KINOMEscan |  | 100 nM | lower = stronger binding | percent of control | 100%
CC(C)=CC1OC(C)(C)C2C=C3C(=O)C(Cl)=CC(O)C3C3C(O)C4OC4C(=O)C132 (stereo not drawn) | NCI-H3122 | cell growth or viability, MTS |  |  |  | IC50 | 2080 nM
O=C1C2=Nc3ccccc3CN2C(=S)N1c1ccc([N+](=O)[O-])cc1 | CEM/ADR5000 (P-gp overexpressing, multidrug resistant) | cell viability, resazurin |  | 72 h |  | IC50 | 26800 ± 1670 nM
C=CC(=O)N1C[C@H](C)N(c2nc(OC[C@@]34CCCN3C[C@H](F)C4)nc3c(F)c(-c4ccc(F)c5sc(N)c(C#N)c45)c(C(F)(F)F)cc23)C[C@H]1C | Ba/F3 expressing wild-type KRAS | cell viability, CellTiter-Glo |  | 3 days |  | IC50 | 25.2 nM
C=CC(=O)Nc1ccc(F)c(-c2ncnc3[nH]cc(C(=O)OCC)c23)c1 | mouse naive CD4 T cells | IL-2 production, ELISA |  | ITK/RLK dependent, added: TCR stimulation |  | IC50 | 1120 ± 500 nM
Nc1ncc(-c2cc(-c3cnn(CC(F)(F)F)c3)ncc2F)nc1C(=O)NC1CNCC(F)C1 (stereo not drawn) | MAP3K4 | KINOMEscan |  | 1 µM | relative to: DMSO control | remaining binding | 77%
Cc1ncsc1-c1ccc(C(C)NC(=O)C2CC(O)CN2C(=O)C(NC(=O)CCCCCCCCCCN2CCCC(Nc3ncc(Cl)c(Nc4ccccc4S(=O)(=O)C(C)C)n3)C2)C(C)(C)C)cc1 (stereo not drawn) | 22Rv1 | RNA-seq, refers to: USP37 mRNA |  | concentration not given | relative to: DMSO | log2 fold change | -1.1
NC(=O)c1ccc(-c2ccccc2Cl)c2c3c([nH]c12)CC[C@H](N)C3 | RBE | cell growth or viability |  |  |  | IC50 | 3.86 nM
CCC(=[NH+][Pt-2]1([Cl])([O]C(=O)CC(C)C)([O]C(=O)CC(C)C)[NH]CCC[NH]1)N(C)CCNc1c2ccccc2[nH+]c2ccccc12.O=[N+]([O-])O.O=[N+]([O-])O | NCI-H460, high hMATE1 | cell proliferation, MTS |  | 72 h |  | IC50 | 5.27 ± 1.2 nM
CCOc1cncc(-c2ccc(NC(=O)C3(c4ccnc(NS(=O)(=O)C5CC5)n4)CCOCC3)nc2)n1 | NUGC-4 | cell proliferation, CellTiter-Glo |  | 72 h, Gastric cancer |  | IC50 | 10000 nM
CN1CCCNC(=O)c2cccc(c2)C(=O)NCCCN(C)CCCNc2cccc3c2C(=O)c2cccc(c2C3=O)NCCC1 | SAS | RNA-seq, refers to: MT-CO3 mRNA |  | 1 µM, 6 h | relative to: untreated cells | log2 fold change | -2.21
Nc1ncnc2c1ncn2CCN1C(=O)/C(=N\N=C2/NC(=O)CS2)c2cc(F)ccc21 | A498 | cell growth or viability, SRB |  | 72 h |  | IC50 | 84.2 µg/mL
C=CC(=O)NCCCCOCc1cn(CCCCNC(=O)C=C)nn1 | L929 | viability, alamarBlue |  | 3 days |  | IC50 | > 50000 nM
CC(C)c1ccc(N(C)c2ccc3c(c2)OCC[C@H]3CNc2cnccc2C(=O)O)cc1 | RD | cell growth or viability, ATP luminescence |  | 7 days |  | IC50 | 9.29 nM
Cn1ncc(-c2ccc3c(=O)[nH]nc(CN)c3c2)c1-c1c(F)c(Cl)cc(OC2CC2)c1C#N | NCI-H2126 | cell viability, inhibitor, CellTiter-Glo |  | 120 h, baseline-subtracted |  | IC50 | 110 nM
CNS(=O)(=O)Nc1nccc(Cc2c(C)c3ccc(Oc4ncccc4F)cc3oc2=O)c1F | SNU-407 | cell viability |  | 7 days |  | IC50 | > 1000 nM
COC1CN([C@H]2CC[C@H]([C@@]3(C)Oc4c(Cl)cc(C(=O)NCc5c(SC)cc(C)[nH]c5=O)c(C)c4O3)CC2)C1 |  | RNA-seq, refers to: PDCD1LG2 mouse homolog | mouse, HT-1376 xenograft, whole blood | dose not given | relative to: vehicle | log2 fold change | 0.665
C=CS(=O)(=O)NCCCCCCOCc1cn(CCCCCCNS(=O)(=O)C=C)nn1 | L929 | cell growth or viability |  | 72 h |  | IC50 | 16600 nM
CC(C)OCCOCc1ccc(OCC(O)CN(N=O)C(C)C)cc1 (stereo not drawn) | Escherichia coli | Ames test | WP2 uvrA | 1580 µg/plate, 30 % rat S9 | relative to: solvent control | revertant fold increase | 0.8 fold

Some of these lines once more:
Structure (SMILES) | tested on | assay | test system | setting | scale | measurement | value
COc1ccc2c(c1)CN1C(=S)N([C@H](C)c3ccccc3)C(=O)C1=N2 | CEM/ADR5000 (P-gp overexpressing, multidrug resistant) | cell viability, resazurin |  | 72 h |  | IC50 | 1330 ± 247 nM
CN(Cc1ccccc1)C(=O)CN1CCN(CC(=O)[O-])CCN(Cc2cccc(C(=O)[O-])n2)CC1.[44Sc+3] |  |  | mouse, muscle | intravenous, 1 h |  | tracer uptake | 0.2 %ID/g
O=C1C(Cl)=C(Cl)C(=O)c2c(O)ccc(O)c21 | HuCC-A1 | cell growth or viability, MTT |  |  |  | IC50 | 9460 nM
